Measurements gathered from unrelated publications.
Each line is one published result; not all experiments were run side by side.
CDK4: Cyclin-dependent kinase 4 (CDK4, Homo sapiens, UniProt P11802)
CDK4 with cyclin D3: Cyclin-dependent kinase 4, with cyclin D3 (CDK4, Homo sapiens, UniProt P11802)

C[C@]1(O)CCCN(c2nc(Nc3ccc(S(=O)(=O)N[C@H]4CC[C@H](CN5CCN(c6ccc(C7CCC(=O)NC7=O)cc6F)CC5)CC4)cc3)ncc2C(F)(F)F)C1 (some centres unmarked)  remaining binding (Cyclin-dependent kinase 4, with cyclin D1 (CDK4, Homo sapiens, UniProt P11802); binding, competition with immobilised ligand; 1 µM): 63%
CNC(=O)C1CCN(c2cc(C)c(F)cc2NC(=O)c2ccc(-c3cc(O)ccc3C)c(C)c2)CC1  remaining binding (CDK4; binding, competition with immobilised ligand; 1 µM): 100%
CC(C)=CC1OC(C)(C)C2C=C3C(=O)C(Cl)=CC(O)C3C3C(O)C4OC4C(=O)C132 (centres unmarked)  remaining binding (CDK4; cell-free assay, competition with immobilised ligand; 10 µM): 100%
COc1cc(Nc2nccc(-c3cnn4nc(OC)ccc34)n2)cc(C(F)(F)F)c1  remaining binding (CDK4 with cyclin D3; binding, competition with immobilised ligand; 1 µM): 92%
Nc1ncc2c(n1)-c1c([nH]c3ccc(C4=CCOCC4)cc13)CCC2  remaining binding (CDK4 with cyclin D3; binding, competition with immobilised ligand; 1 µM): 76%
COc1c(Cl)cccc1Nc1c(-c2ccncc2C#C[C@@]2(C)CCCN2C(=O)/C=C/CN(C)C)[nH]c2c1C(=O)NCC2  remaining binding (CDK4; binding, competition with immobilised ligand; 3 µM): 100%
C=CC(=O)N1CCCC(n2c(=O)c3ncccc3n(Cc3ccc(Oc4ccccc4)cc3)c2=O)C1 (centres unmarked)  remaining binding (CDK4 with cyclin D3; cell-free assay, competition with immobilised ligand; 1 µM): 89%
Cc1cnc2nc1Nc1cccc(c1)COC/C=C/COCc1cc(ccc1OCCN1CCOCC1)N2  remaining binding (CDK4 with cyclin D3; binding; 0.1 µM): 89%

Some of these lines once more:
C[C@]1(O)CCCN(c2nc(Nc3ccc(S(=O)(=O)N[C@H]4CC[C@H](CN5CCN(c6ccc(C7CCC(=O)NC7=O)cc6F)CC5)CC4)cc3)ncc2C(F)(F)F)C1 (some centres unmarked)  remaining binding (Cyclin-dependent kinase 4, with cyclin D1 (CDK4, Homo sapiens, UniProt P11802); binding, competition with immobilised ligand; 1 µM): 63%
